Measurements from different studies.
Parts stem from different laboratories: compare values within a part only.

Set 1
Target: Phosphate system positive regulatory protein PHO4, full length, GST-tagged (PHO4, Saccharomyces cerevisiae, UniProt P07270, residues 1-312)
Technique: competition protein-binding microarray
Molecule type: double-stranded DNA, one strand shown
Medium: in vitro
Tested at: 2 µM
Notes: whole 60-bp probe, lowest competitor level
Together with: Cbf1 competitor, 0.05 µM
Direction: higher = stronger binding
Constant ends, left off below: … GTCTTGATTCGCTTGACGCTGCTG
Construct (chain): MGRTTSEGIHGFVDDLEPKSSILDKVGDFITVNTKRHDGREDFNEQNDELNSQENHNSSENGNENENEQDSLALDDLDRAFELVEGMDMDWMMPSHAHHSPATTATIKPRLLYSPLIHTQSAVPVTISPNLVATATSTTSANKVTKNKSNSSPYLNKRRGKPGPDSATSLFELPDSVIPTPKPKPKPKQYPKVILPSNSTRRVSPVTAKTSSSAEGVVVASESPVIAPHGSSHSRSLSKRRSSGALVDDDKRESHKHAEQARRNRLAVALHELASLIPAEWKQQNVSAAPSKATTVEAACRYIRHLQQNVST
Sequence	fluorescence intensity
CTAACGAAGGTTTGGTTCGTGGGTGACAAGCCAAGT	6470 a.u.
TAACAACAGGACCATCACGTGAAACTTCGACGGCTT	10700 a.u.
TCGTCGATGAAGCTGAACGTGCAAAGCTGGACTTAC	10900 a.u.
CGTCCTAGTGATTGTCACCAGACTTCCATGAGGAAG	3670 a.u.
CTTTCCCGATCTTGAAAAGTGGGTGTAGCACATTTG	4060 a.u.
CCTCCGTTAGGTTGTCATGCCCCGAGGGTGCGAGGT	5880 a.u.
AGCGTTCAACTAGTCTACTAAAAAGTAAAAGAGTTA	2830 a.u.
TCTCCACTCTTCCTCCACGTGGCCGTACTTTCCCCG	20200 a.u.
ACAAGTTTTACTCGGCACGTCAATTCGATGAAGCTA	4740 a.u.
CTGACGGTAGCGCTCCAGGTGATGCTGGTGTTTCAT	4260 a.u.
CCCAAAGGGATGGGATACATGACAACAACAAGCAAG	4330 a.u.
GCGGAGGGGGCAGCCCATGTGCTGCGATTCGCTCCC	10300 a.u.
GCTAATGTAATATAATCCGTGATGGTTTAATGGTCA	4210 a.u.
AATTGGCTTGAAGGAAACGTGAGAACCATTAACACA	9250 a.u.
CCGTTGACTTAGCTTCCTGTGATGCTGGTGTTGTTG	4400 a.u.
AAGCCTTTGGAACGCCATGTGTAAGGTGCAATGGAC	8780 a.u.
CACAGCGAAGTATGGCTCGTGACTCGCAAAATCATC	8070 a.u.

Set 2
Target: Sal-like protein 4, full length isoform A (SALL4, Homo sapiens, UniProt Q9UJQ4, residues 1-1053)
Sequence of UniProt Q9UJQ4 (whole entry, looked up): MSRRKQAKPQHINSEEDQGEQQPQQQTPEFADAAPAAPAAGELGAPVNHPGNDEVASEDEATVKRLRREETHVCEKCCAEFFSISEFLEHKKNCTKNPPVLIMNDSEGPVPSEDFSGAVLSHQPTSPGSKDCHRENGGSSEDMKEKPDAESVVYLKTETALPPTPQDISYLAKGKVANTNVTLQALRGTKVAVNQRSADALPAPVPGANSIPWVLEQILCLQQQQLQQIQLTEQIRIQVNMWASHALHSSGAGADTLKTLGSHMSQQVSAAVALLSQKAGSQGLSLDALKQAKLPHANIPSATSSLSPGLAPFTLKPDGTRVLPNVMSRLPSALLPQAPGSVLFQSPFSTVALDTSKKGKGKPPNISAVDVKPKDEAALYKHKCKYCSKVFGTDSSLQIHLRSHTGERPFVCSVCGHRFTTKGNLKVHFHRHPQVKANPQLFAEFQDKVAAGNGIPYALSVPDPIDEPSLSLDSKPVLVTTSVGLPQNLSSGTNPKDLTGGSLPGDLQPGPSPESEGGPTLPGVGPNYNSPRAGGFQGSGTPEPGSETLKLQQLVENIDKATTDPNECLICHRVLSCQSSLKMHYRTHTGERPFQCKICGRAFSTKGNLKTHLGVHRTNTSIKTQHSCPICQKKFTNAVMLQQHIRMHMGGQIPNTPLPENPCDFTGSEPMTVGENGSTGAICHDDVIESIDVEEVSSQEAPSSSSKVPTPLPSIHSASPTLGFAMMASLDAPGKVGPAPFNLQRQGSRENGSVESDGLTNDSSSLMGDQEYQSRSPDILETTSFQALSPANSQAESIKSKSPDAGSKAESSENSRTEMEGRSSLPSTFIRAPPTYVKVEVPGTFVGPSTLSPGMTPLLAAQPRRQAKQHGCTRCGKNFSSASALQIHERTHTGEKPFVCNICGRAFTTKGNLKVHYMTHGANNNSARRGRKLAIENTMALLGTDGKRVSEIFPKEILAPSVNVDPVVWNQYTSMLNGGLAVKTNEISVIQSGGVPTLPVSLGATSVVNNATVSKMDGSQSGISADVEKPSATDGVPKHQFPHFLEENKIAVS
Technique: universal PBM
Molecule type: double-stranded DNA, one strand shown
Medium: in vitro
Tested at: 600 nM
Notes: 8-mer, flanks averaged, mean of replicates
Direction: higher = stronger binding
Sequence	E-score
CACCGAGA	-0.199
ACTAGCCC	-0.105
TCACGCAA	0.181
GGGCGGCA	-0.414
CCACGCTA	-0.104
TGAGAACA	0.121
ACAGAATA	0.284
ACGGAAAC	-0.208
CCCCTACG	-0.258
TATGCTCA	0.15
AGCCCGAT	-0.096
AATCGGAT	0.0928
ACGTATTC	0.0468
GTTGAGAA	-0.0268
CAGGGATG	-0.0943
GACGGCGA	-0.245
TCGACGAA	0.00341
ACGTCGCC	-0.324
GTGAGAGA	-0.0587
CGCAGCTC	-0.2
CGATAGAC	0.0124
CGGCCGTA	-0.219
CTGCTGGA	-0.0785
GTGAGCGA	-0.169
AAAACACT	0.17

Set 3
Target: Histone acetyltransferase KAT6A, winged helix 1, GST fusion (KAT6A, Homo sapiens, UniProt Q92794, residues 1-85)
Technique: protein binding microarray
Molecule type: double-stranded DNA, one strand shown
Medium: in vitro
Tested at: not given
Notes: 8-mer, flanks averaged, mean of 2 arrays, mostly near background
Reference: not given
Direction: higher = stronger binding
Construct (chain): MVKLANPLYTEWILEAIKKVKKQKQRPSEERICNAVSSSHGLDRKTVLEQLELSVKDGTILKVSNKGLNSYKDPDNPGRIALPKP
Sequence	E-score
TATGTACA	-0.109
CGCACGAG	0.169
CGGCCCGC	0.362
CTGCAGAA	-0.113
CTGCGAAC	-0.0668
CGACGCAC	0.226
ATTTCCTA	-0.208
CTGGCCCA	-0.145
GCAACTGC	0.179
ACAGCCTG	-0.103
ACGGAATA	0.156
GCGGTCCC	0.273
AGCGCTAA	0.332
CTGGCTCA	-0.0932
TACTGCTA	-0.0374
CGGTGGAC	0.038
GCCGCGTA	0.417
CCCGCGGC	0.462
GGCACTTA	-0.0917
GCGCACCC	0.382
TTACGCAA	0.0762
CTATTTCA	-0.143

Set 4
Target: RNA binding protein fox-1 homolog 2, RRM domain, GST-SBP tag (RBFOX2, Homo sapiens, UniProt O43251-10, residues 100-194)
Technique: RNA Bind-n-Seq
Molecule type: RNA
Medium: in vitro
Tested at: 365 nM
Notes: natural RNA segment, single round, ends assumed
Reference: no-protein control
Direction: higher = stronger binding
Constant ends, left off below: GGGAGUUCUACAGUCCGACGAUC … UGGAAUUCUCGGGUGCCAA
Construct (chain): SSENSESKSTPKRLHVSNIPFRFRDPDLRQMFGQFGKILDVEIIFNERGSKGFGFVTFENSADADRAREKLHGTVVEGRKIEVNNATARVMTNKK
Sequence	RBNS enrichment (R)
GAUGAGCUACCCCCUCAGGUGCACAAGGUAUAGACAAGGCUGAGCAGGGUUCCUGUGGCCCAGGAUGGAGGCCACCGCUGCCCUGCCAUCCCGUCUGCCUGCCAUGGGAC	0.527
UUUAUUUUAUCCCUAAUAACAGAAGUCUCCCUUCCAUGGUUUUAGCGUUGCCUUUUUAAAAAGGCACUCACCCUGAGUUGUUAAGAACUGGACCUGCCCCACCCUCAGAU	0.31
UGGCAUUUUUUUAUCUGUAUACUUUUUGAUGUGGUUGAUUGUUUUUAACAUGCUAAAAGUAAUCCGUGUAUUUUGUUCUGUGUCUUCUGUGUGCAGCUUCCCCGUGGCAA	0.587
UCCUGGGCCAGCCCUUAUGUCUGAAACUGGUUGCCAACAGCCCCGAGCCAAGGCAAGGAUUUGUGUUUGCCAAAAAUGUUCUGGGGACCCAGCCAGUGUGGGUCUGAACA	0.671
CCACGCUGGUCUUCUGAGAUUCCAAGUCCUUCCCCAGCUGACAUGCCCGUAGCCCCUUCCGACUCAGUGGGGCGAGCGCUCAACACGGAUCGCCCCCCCCUUCCCAGUUC	0.341
CGCCUCUGACACUUUUGGAGGUGAUAUGAUACAGCCCCCGACCAAACCAGGCUUUGUGGGGGGUGAGAGAAUACAGACACAAGUGGCAGGAUUCAGAUGGAAGCUUCGCA	0.498
GCUUUCAGCCUGCUGCCUAAAUCGGCAAAGGAACACAGCGGGAAAGAGAGAUCUGGGUCUUGGUAAUAUAAGGAAUCUAUUGGAGAGCCAGAAAAGGAAAGACACUGGGG	0.866
GUGUCCUGGCAGAUGAUCAGUACAGUGUCCCCCUCAAGUCACACUUUCCUGCCUUACACAGAGCAGUAGCAUACCAUCCCUCUGGAGGGUAGGGGACCCCUGCGGUUCCA	0.356
UAGUGGCAUCAAAUGGCAACAUGGAAUAUUGUCCUCCAUGCCCCUCCAGAAGGACCUAGGAGAGUAGGUGAGCUUUCCAAAGUGAGAGACGAAUCUUUCUUUCUUUUUUU	0.362
UUAACUUUCUCUUCCUUAAAUACAAGUCAAUGAAGUGAAGGAGGGUAUGCAUACAUGCCCCUCACCCUACCCCAGGGACCAUGGUUCCUAGGAUCUCACUGCCUCCCUCU	0.232
UCCACAGUUGUCAGUUGUGAAGAGGGGACCAGAUGUCACUCUGCAGCAGGCUGAUGGAAGAUGGCGGGGCCUGCCAACCCCGAGGCUGGGGGAUCGCCAUAUGGACCACC	0.658
GUCCAGUGAAAUCUCAUUAGGGUUUAAGAAUAUUUCAGGGAUCCUUAAUGUUUUGAUUUUUGUUUUCUGAAAUUGGAUUUUAUUUUAUUUUAUCUUAUAAUUUCAGUUCA	0.629

Set 5
Target: Interferon regulatory factor 3, full length, phosphomimetic (IRF3, Homo sapiens, UniProt Q14653, residues 1-427, S386D/S396D/S398D/S402D/T404D/S405D)
Sequence of UniProt Q14653 (whole entry, unmodified, looked up): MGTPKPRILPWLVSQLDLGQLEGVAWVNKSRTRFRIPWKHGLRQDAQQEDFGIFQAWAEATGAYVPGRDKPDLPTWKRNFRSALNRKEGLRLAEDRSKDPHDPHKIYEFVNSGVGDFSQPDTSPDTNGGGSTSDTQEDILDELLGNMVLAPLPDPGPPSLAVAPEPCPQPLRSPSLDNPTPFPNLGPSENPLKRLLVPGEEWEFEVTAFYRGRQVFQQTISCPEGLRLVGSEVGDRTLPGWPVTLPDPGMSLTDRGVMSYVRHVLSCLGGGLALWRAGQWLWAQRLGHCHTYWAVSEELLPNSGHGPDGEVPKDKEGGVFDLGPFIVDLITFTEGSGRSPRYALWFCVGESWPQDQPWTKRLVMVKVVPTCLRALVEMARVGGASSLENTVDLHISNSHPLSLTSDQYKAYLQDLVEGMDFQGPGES
Technique: protein-binding microarray
Molecule type: double-stranded DNA, one strand shown
Medium: in vitro
Tested at: 2540 nM top
Notes: 60-bp whole probe
Together with: salmon DNA 0.4 mg/ml
Reference: random background probes
Direction: higher = stronger binding
Constant ends, left off below: GCCTAGCAC … GTCTTGATTCGCTTGACGCTGCTG
Sequence	fitted relative affinity [z-score]
TCATCATTCCTGATCTCACTGTGCTAG	0.756
GACCGTATCCTTTTCCTGACGTGCTAG	6.95
GACGGAGTGGACACTGGGGACGTGCTA	-0.777
GACGAACTGCGGTTTCGAGACGTGCTA	1.79
CTGGAGGTTGGGCAAGGCCCGTGCTAG	-1.56
TCCCATTAAATTTTAATAACGTGCTAG	0.954
TCAGGTCTCCTTATCCTTTAGTGCTAG	3.46
TGAGGTTTTCTAATGTTTTTGTGCTAG	0.727
GACGGTTTCGACTATCGGGTCGTGCTA	3.03
GACGGTCTCTTACTGCTGACGTGCTAG	0.0946
GACGGTATCGACTTTCGGGCCGTGCTA	0.868
GACGGTTTCGGGTTTCGGGAAGTGCTA	6.18
GACGGTTTGGGTCTCGGGACGTGCTAG	0.164
GACGAACTGGGGTTTCGGGACGTGCTA	1.03
TCATTTCAGTTTCTCTTACTGTGCTAG	4.35
TCATTCTTTTTTTTCTTACTGTGCTAG	2.76
TTAGGCATCCTTTTCCTTTAGTGCTAG	2.42

Set 6
Target: Prothrombin, mature alpha-thrombin (F2, Homo sapiens, UniProt P00734)
Technique: aptamer microarray, sandwich
Molecule type: DNA with 2'F-ANA
Medium: in vitro
Tested at: 200 nM
Notes: whole 15-mer aptamer, many near background
Together with: Cy3 exosite-II aptamer, 400 nM
Direction: higher = stronger binding
Sequence: GGTTGGTGTGGTTGG
Modification	mean fluorescence intensity [a.u.]
2'F-ANA at 1 2 3 6 7 9 10 11 12 15	70.4
2'F-ANA at 3 4 5 7 8 14 15	52.8
2'F-ANA at 1 3 6 12 14	108
2'F-ANA at 1 6 13	128
2'F-ANA at 2 3 4 8 12 14	414
2'F-ANA at 1 5 8 9 10 11 12 14	48.6
2'F-ANA at 1 3 4 6 7 8 9 10 11 12 13 15	81.6
2'F-ANA at 2 4 7 9 10 11 12 14 15	89.3
2'F-ANA at 1 2 3 4 5 9 10 11 12 13 14	44
2'F-ANA at 2 3 6 7 8 9 13 14	321
2'F-ANA at 4 5 6 15	62.8
2'F-ANA at 1 5 6 7 9 10 12 14	42.6
2'F-ANA at 2 4 7 8 9 10 12 15	140
2'F-ANA at 2 7 8 9 12 13 14	180
2'F-ANA at 2 3 4 6 7 9 13 14	216
2'F-ANA at 1 3 6 8 14	94.7
2'F-ANA at 3 4 8 9 10 12	362
2'F-ANA at 1 2 3 6 9	201
2'F-ANA at 3 4 5 8 9 10 12 13 14	81.4
2'F-ANA at 2 3 4 6 12 13 14	261
